Published values from different studies.
A part holds a random share of what one study measured. Substitutions count along the parent as printed.

Sample 1
Target: Histone acetyltransferase KAT6A, winged helix 1, GST fusion (KAT6A, Homo sapiens, UniProt Q92794, residues 1-85)
Method: protein binding microarray
Molecule type: double-stranded DNA, one strand shown
Sample: in vitro
Tested at: not given
Notes: 8-mer, flanks averaged, mean of 2 arrays, mostly near background
Reference: not given
Direction: higher = stronger binding
Target sequence (chain): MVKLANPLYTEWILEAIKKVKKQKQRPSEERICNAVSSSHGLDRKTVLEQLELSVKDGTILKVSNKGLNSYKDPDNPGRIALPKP
Sequence	E-score
ATCAAAAC	-0.033
CAAGATAG	-0.0324
TCAGCTAA	-0.231
ATTAAAGA	-0.0748
CCCAACGC	0.0966
CAAAAGCC	0.0663
GCGTCCAA	0.0311
AGTGCCCG	0.156

Sample 2
Target: TAR DNA-binding protein 43, full length, His tag (TARDBP, Homo sapiens, UniProt Q13148, residues 1-414)
Method: RNA Bind-n-Seq
Molecule type: RNA
Sample: in vitro
Tested at: 20 nM
Notes: 6-mer, flanks averaged, single round
With: 150 mM LiCl
Reference: input library
Direction: higher = stronger binding
Sequence	6-mer enrichment (R)
GCGCGA	1
AUCAAG	0.814
UGCUAA	0.905
CUGAGG	0.938
CCGACU	0.84
ACGUUC	0.835
GCGGGC	1.09
GUAUAA	0.996

Sample 3
Target: CCNA1, cyclin fold, Cln2 fusion (human)
Method: yeast growth competition, sequencing
Sample: yeast
Notes: weak parent motif
Reference: not given
Direction: higher = stronger binding
Starting sequence: viral docking peptide; KGVKRKLFAEDSS
Change	normalised enrichment score
A9W	0.726
K6Q	1.29
R5H	0.165
D11Q	0.555
E10L	1
E10A	0.393
E10V	0.727
A9D	1.51
S12M	1.16
D11K	0.69
K4E	0.0858
F8L	0.0846
E10G	0.206
L7E	0.355
D11P	0.953
S12R	0.82
K4R	1.74
K6A	0.588
F8D	-0.302
V3D	0.116
D11E	1.1
G2R	1.26
G2Y	0.875
D11N	0.591
R5S	-0.204

Sample 4
Target: Probable WRKY transcription factor 11, DNA-binding domain (WRKY11, Arabidopsis thaliana, UniProt Q9SV15, residues 228-325)
Method: DNA-protein interaction ELISA
Molecule type: double-stranded DNA, one strand shown
Sample: in vitro, bacterial lysate
Tested at: not given
Notes: whole dsDNA probe, crude lysate protein
Reference: highest signal in screen
Direction: higher = stronger binding
Residues (chain): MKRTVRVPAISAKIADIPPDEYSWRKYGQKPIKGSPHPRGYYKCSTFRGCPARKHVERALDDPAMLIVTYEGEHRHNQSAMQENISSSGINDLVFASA
Sequence	relative absorbance
AAAAAATTCACTTTTACCTTTGTGTTAAAA	14.1 % of maximum
AAAAAAAACTGTCGCCCCCGGCTGGCAAAA	13.3 % of maximum
AAAAAATGTCCATCTTGCGTCTGTATAAAA	18.4 % of maximum
AAAAAATGGTTTCAATTTTCCGTCCGAAAA	10.1 % of maximum
AAAAAATCCATTCTTCGCGTTTATCCAAAA	13.5 % of maximum
AAAAAAGATGATTAGTAATTGCGGAAAAAA	19.9 % of maximum
AAAAAAACCCTGTGTCGGCCGATAAAAAA	14.7 % of maximum
AAAAAACCTACGATGGTTCTGATCTTAAAA	16.4 % of maximum

Other studies, line by line
Molecule	partner	test	setting	quantity	result
HNRNPA1L3 (Homo sapiens, UniProt A0A2R8Y4L2)	HNRNPA2B1 (Homo sapiens, UniProt P22626)	cross-linking MS	hits only	interaction screen	cross-linked

Some of these lines once more (sample 3):
Change	normalised enrichment score
S12M	1.16
D11K	0.69
K4E	0.0858
F8L	0.0846
